# Results gathered from unrelated publications.
# A part holds a random share of what one study measured.

# Study 1
# Target: RING finger protein unkempt homolog, zinc fingers 1-6, GST-SBP tag (UNK, Homo sapiens, UniProt Q9C0B0, residues 30-357)
# Technique: RNA Bind-n-Seq
# Molecule type: RNA
# Matrix: in vitro
# Concentration: not given
# Setting: RNA with constant flanks, human and mouse sites, ends assumed
# Baseline: input RNA pool
# Direction: higher = stronger binding
# Shared flanks, not repeated: GGGAGUUCUACAGUCCGACGAUC … CAACAGAGGAUUGAGCAUCA
# Target sequence (chain): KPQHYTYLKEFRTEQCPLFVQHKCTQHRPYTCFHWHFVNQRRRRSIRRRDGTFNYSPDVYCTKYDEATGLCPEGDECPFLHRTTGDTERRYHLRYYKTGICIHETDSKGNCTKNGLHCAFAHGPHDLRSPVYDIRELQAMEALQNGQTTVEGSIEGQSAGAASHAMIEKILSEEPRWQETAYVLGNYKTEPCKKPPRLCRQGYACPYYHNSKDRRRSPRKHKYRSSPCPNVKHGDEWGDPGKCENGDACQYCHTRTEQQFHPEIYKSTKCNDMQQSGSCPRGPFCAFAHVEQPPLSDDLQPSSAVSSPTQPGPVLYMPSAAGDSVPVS
Sequence,bound/input enrichment [ratio]
AGCCAGGGGAAGCCUGGCAGUCCGGAGCCCGAGACAGAGACCGUUUCUUCAGUUCAUGAGAGCCAUGAAAACGAAAGGAUUCCUCGACCACUCAGCCCAACAAAAUUACUGCCUUUCUUG,0.0937
AGAAUGGAAGAUUUCACAUUUAAUGACUUGCAUAUUAAACUUGGCUUUCCUUACUUAUACUGUCACCAGGGAGACUGUGAGCAUGUUGUUGUCAUCACAGACAUAAGGCUUGUGCACCAU,0.291
GGUCACACCAGGCCUAAGAAGGCAGAAGUUGAAUCAAUUGAACUAGGGCACUAAACUGAAUAGUUGACAGUGUCAUUUUAUGUUGGAUUAUUAAUUCCUGUUUUUCUUUCUGCUAUCUGU,0.193
AAGAUUGAAGGCUUGGAGGUGCUAAAGAAAGUGAAGUCACUCUGCCUUCGUCAAAACCUAAUUAAAUGCAUUGAAAACCUGGAAGAACUGCAGAGUCUUCGAGAACUGGAUCUCUAUGAU,0.178
GGUUCUCUGCCCCCACCCCCGGCCCUUUGUUUGACUUGCGUCGUCUGAUACUCAGUAUUGUAGCUUUUUGUCCGCAUGUUACUCCCUGUAAAUACGCUGUUAUACAUACUGUUAACACCC,0.44
GUGUCACCUGCAGUGCCCAUCUACAAUGCAAUUAUGUUUCUCUUUGUGUUGGCCAACUUCAGCAUGGCCACCUUCAUGGACCCAGGGAUUUUCCCUCGAGCUGAGGAGGAUGAGGACAAG,0.16
UACAGCAACAUUUCACCUGUCCAGAUCCACUGGUACAAUACUUCAAAUCCUUUACCUUAUGAACAUAUGAAGCCAAGCUUUCUCAACCCAGCUAAAGAACCUACCUCAGUUUCAGAGAAU,0.185
CCAUUUGACCCAUUGACCCUGCCAGAGAAGCCCCUGGCUGGAGACCUACCAGUAGACAUGGAAUUUGGAGAGGAUCUACUGGAAUCCCAGACUGCCCCAACUCGAGGAUGGGCCCCCCCU,0.295
UUAGGAAAAGCUACAAAUAACACUUACUUUGAAUCCUGCUGUCAAAUGUCUGCAUCAAGAUAGCACCCCUUUGUGGGAGGCCCUGAGUAUCUUCUCUUCCUCUACUGCCUAACUGUUGGU,0.627
CCUUCCUUUUGAAAGCUGAAUUCCAUUGCAUCUGAAGAAGCCUCUCUCAGGGCAUUGGAAAGUCUGAUGACAGAAUUUUUUCACGAUUGUACAACCAAUGAAAGAAAACGUGAGAUAGAG,0.209
CAGGAGUCUCUGGGACAGUCCGAGAGUUUAUCUCCCCACAAGAUGACCAAGUUGUUACAGAGAUUUCCCAACAAAUCUCAUCUCAUCUGAAAAUGGAGAAAUAUUUUCAAUGAACUCUCA,0.0724

# Study 2
# Target: Histone acetyltransferase KAT6A, winged helix 2, GST fusion (KAT6A, Homo sapiens, UniProt Q92794, residues 85-181)
# Technique: protein binding microarray
# Molecule type: double-stranded DNA, one strand shown
# Matrix: in vitro
# Concentration: not given
# Setting: 8-mer, flanks averaged, mean of 2 arrays, mostly near background
# Baseline: not given
# Direction: higher = stronger binding
# Residues (chain): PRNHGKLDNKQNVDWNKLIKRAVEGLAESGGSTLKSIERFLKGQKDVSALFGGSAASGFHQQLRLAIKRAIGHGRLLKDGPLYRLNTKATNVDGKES
Sequence,E-score
CCGCTCAA,0.0602
GCAAGAGA,0.07
CCATCGTA,-0.153
CGCCGAGC,0.206
CGTACTAA,0.0204
AATTTTGC,0.0503
CTTATGAA,-0.0238
AATAAGGT,-0.12
AGTTATTG,-0.0576
CAGTGTAG,0.0934
ACCATGGG,-0.117
CCTAGACC,-0.137
ATGCCATG,0.058
ACCCACCG,0.161
CGGTCCCC,0.141
GACATGTC,-0.249
TATTAAAA,0.151
CCCAAAAA,0.0127
AGGTGGGC,-0.0129
TGCCGAAA,0.114

# Study 3
# Target: RNA binding protein fox-1 homolog 2, RRM domain, GST-SBP tag (RBFOX2, Homo sapiens, UniProt O43251-10, residues 100-194)
# Technique: RNA Bind-n-Seq
# Molecule type: RNA
# Matrix: in vitro
# Concentration: 365 nM
# Setting: natural RNA segment, single round, ends assumed
# Baseline: no-protein control
# Direction: higher = stronger binding
# Shared flanks, not repeated: GGGAGUUCUACAGUCCGACGAUC … UGGAAUUCUCGGGUGCCAA
# Target sequence (chain): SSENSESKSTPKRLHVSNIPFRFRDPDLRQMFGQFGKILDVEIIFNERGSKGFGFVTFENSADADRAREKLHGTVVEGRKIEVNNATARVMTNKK
Sequence,RBNS enrichment (R)
GACUGUUGUCUGUGCCAACCUAAGAGAUUCCCAGUGCUGGGACCACUGCUUUUUUUCCUGAUGUGGGGUGAGGGUCUAUUCUGUUUCCCAUUCCUGCUGCAUCCUGCCUG,2.2
CAGAUUGAGGCCACUUUUGAGCAAGGGAGAUCCUGGAGUUAAGACAGGUGUUGGGGGCAGCCUGUAUUUUACCCUAGGGGCAGGUCUGCAUGGUGACCCCACAUUGCACU,1.49
AAGAGUCCCUUGUUAAAGGGGCAGUGGGAGUUAUGGGGUCAUCAAGGACCUUGCCUCUCUGGAAUCUGUCAACCCAGUUUUGGGCUCCAGGUGGAUGGGUUGCUUUAUAA,0.315
AGACCAAUCAAGUCACUUGACAAUAUGCCCCAAGUGACUCCCUUACCCUGUUUUAUAAACCUGUGCCUGUCUAUGGAGAAGGUUUUAAUUCUCCUUGUUAUUCAUUUUGG,0.414
GAAGAUUCGGGCAUGUGAGUGCCCCCAGAACUGUCCUGGCUCCUUCCGUAUUAAACGCAUUUGCAUUUUGAGAAGUGUCCUUCCCACUUCAGCCCUCCGGAGAGACUACC,2.2
GAUGUCAGGGGCAACGGGGUAUCUUAGAAGCCUUAAAUGAGAGCUAAUAUAAUCCAGACAGCAAUGGUGUUAGUAUUUUUGGUCUGUGUACCCACGUGCCCAUGUAUAUG,0.518
CUGAGGAUAUGAACUACACUGCUUGGUCACACGCUGGGAUCAGAAUCUUAAGCAGUUAUUCUUGCCAGGGUUUUGUUUUGUUUUGCAUUUUGCUCUUCAUUUCCGCAUGU,1.99
ACUGAUUUUUGUAGUUUUGGUAUUUAAAGCAAAAACAAACAAAAAACAAACCCCUUUUUGGUACCUGCACUGCAUCCCUCGGGUGGGGCAGUGCCUACUUUGGAAGAUGC,0.264
UUUUUUUUUUUUUUAAACAGGGAUGUCUGUUGAAAUAAAACAUUGAGUGUGACAGAUGCUGCCUACAGGUGUCUGGAUCUCAGAGUUGAGCUUGUGCAGAGGGCCCUGCC,0.41
GAAUAUUUUUGUACCUGAUGUUUCCAGAUGUUGGGAAGUUAUCAAUAAAGACUGUUGUUAAAAGGGACACUUAUAGCAACAGUGGCUUGCUUCUGUUUUUGGGCCUCACA,1.33
GGAAGGAAGAAAAAGCCAGCAAUCAACCAUCAUGUGUUUCUGUAGAAUCAGAUGUAAUAGGAAACAUAGUUUCAGAUUGCUUCUGACAAAGUCUGUGCCACAUUCCUCAC,0.339
GUGAGCCCCGUAGUGAUGGCCUCUGCCUUGUGCUUGGCCUUCCCCAUUGCCUGCACCUGAAACAGCCACCCACAUACACACUCUGGUAGGUCAGGGGGUCCCCGACAAUC,0.436

# Study 4
# Target: Ras GTPase-activating protein-binding protein 1, RRM domain (G3BP1, Homo sapiens, UniProt Q13283)
# UniProt Q13283, sequence (whole entry, looked up): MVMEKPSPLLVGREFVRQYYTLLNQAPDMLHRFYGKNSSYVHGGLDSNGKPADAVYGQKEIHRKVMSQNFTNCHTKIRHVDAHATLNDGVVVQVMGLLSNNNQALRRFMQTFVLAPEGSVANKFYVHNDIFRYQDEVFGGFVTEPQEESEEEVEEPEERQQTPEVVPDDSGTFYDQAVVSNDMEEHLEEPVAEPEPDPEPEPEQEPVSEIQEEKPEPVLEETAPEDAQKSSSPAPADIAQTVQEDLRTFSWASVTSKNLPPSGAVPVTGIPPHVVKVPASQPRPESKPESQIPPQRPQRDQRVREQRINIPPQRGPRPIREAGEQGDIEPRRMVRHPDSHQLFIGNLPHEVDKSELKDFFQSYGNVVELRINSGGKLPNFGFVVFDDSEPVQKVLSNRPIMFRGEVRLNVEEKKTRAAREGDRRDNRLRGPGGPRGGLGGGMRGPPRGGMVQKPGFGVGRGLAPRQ
# Technique: RNA Bind-n-Seq
# Molecule type: RNA
# Matrix: in vitro
# Concentration: 1 µM
# Setting: whole 134-nt RNA, ends assumed
# With: 150 mM KCl
# Baseline: input library
# Direction: higher = stronger binding
# Shared flanks, not repeated: GGGAGUUCUACAGUCCGACGAUC … UGGAAUUCUCGGGUGUCAAGG
Sequence,log2 enrichment
UCAAGUCCUGUGCUACACAUCGUAUGUACCGAAUCGGGAAAGGGAAAGGAAAGGGAAAGUAUUAUGUUACGCCGUUCGGAUCUGCACUUC,-0.188
UGGCCCUGGUGGCAUGCGGGGAGGAAGAGGGGGCCUCAUGGAUCGUGGUGGUCCCGGUGGAAUGUUCAGAGGUGGCCGUGGUGGAGACAG,0.908
CAAGUCCUGUGCUACACAUCGUAUGUACCGAAUCGGAGGAAAAAAAGGUUUUUGGAAAGUAUUAUGUUACGCCGUUCGGAUCUGCACUUC,-0.198
CCUGUGCUACACAUCGUAUGUACCGAAUCGGGUUUUUGGGUUUUUUUGGGUUUUUUUGGGAAAGUAUUAUGUUACGCCGUUCGGAUCUGC,-0.244
CCUGUGCUACACAUCGUAUGUACCGAAUCGGGGCCCCCCGGGGCCCCCCGGGGCCCCCCGGAAAGUAUUAUGUUACGCCGUUCGGAUCUG,-0.71
AGGACGUGCAGAACUUCCUCUCUGACUGCACGAUUCAUGAUGGGGCCGCAGGUGUCCAUUUCAUCUACACUAGAGAGGGCAGGCAGAGUG,-0.115
UAACUUUAGAGGAGGAUCUGAUGGAUAAGGCAGUGGACGUGGAUUUGGGGAUGGCUAUAAUGGGUAUGGAGGAGGACCUGGAGGUGGCAA,-0.694
UGGGAGGUGGGUUUUGUUUAUUUUUUUAGCUCAUUUCCAGGGGUGGGAAUUUUUUUUUAAUAUGUGUCAUGAAUAAAGUUGUUUUUGAAA,1.4
UCCGCACACCCGGCCUGUCACCCUGCUUUCCCUGCCUCUACUUGACUUGGAAUUGGCUGAAGACUACACAGGAAUGCAUCGUUCCCACUC,0.0388
UGGGAGGUGGAUUUUGUUUAUUUUUUUAGCUCAUUUCCAGGGGUGGGAAUUUUUUUUAAAUAUGUGUCAUGAAUAAAGUUGUUUUUGAAA,1.94
UCAAGUCCUGUGCUACACAUCGUAUGUACCGAAUCGGGGUUGGUUGGGGUUGGGGAAAGUAUUAUGUUACGCCGUUCGGAUCUGCACUUC,0.195
UGGCCCUGGUGGCAUGCGGGGAGGAAGAGGUGGCCUCAUGGAUCGUGGUGGUCCCGGUGGAAUGUUCAGUGGUGGCCGUGGUGGAGACAG,2.39
CACAGACAACACGCACCCACACAGACACAGAGGGAAGGGGUUGGGAAGGGGACAGGGUGCACAGCAGGGCGGGGUAGGACCCCAGCCCCU,-0.0937
UUCGACGAAACAAUUCGAAAGCCCAUCAGUUUGGGUUGUGGCCAUACUGUCUGCAAGAUGUGCCUGAAUAAACUCCACCGCAAGGCUUGC,-0.0467

# A few entries again (study 2):
Sequence,E-score
GCAAGAGA,0.07
CCTAGACC,-0.137
CGGTCCCC,0.141
TGCCGAAA,0.114
